# Experimental data collected from several papers.
# Compare with care: the assays were run in different laboratories. “And” joins repeats or separate records; there may be more than shown. ± marks the error that the study gave.
SMILES,assay,system,conditions,how to read,measurement,result
CC1(C)C(=O)N(c2ccc(C#N)c(C(F)(F)F)c2)C(=S)N1c1ccc(C(=O)O)c(F)c1,,"human, male, plasma","oral, 160 mg, single dose, fasting",,AUC(0-inf),65300 ± 17200 ng·h/mL
CSCC[C@H](NC(=O)[C@H](CC(C)C)NC(=O)[C@H](CCC(N)=O)NC(=O)[C@H](C)NC(=O)[C@H](Cc1c[nH]c2ccccc12)NC(=O)[C@H](Cc1ccc(O)cc1)NC(=O)[C@H](CCC(=O)O)NC(=O)[C@H](CC(C)C)NC(=O)[C@H](Cc1ccccc1)NC(=O)[C@@H](NC(=O)[C@H](CC(C)C)NC(=O)[C@H](CCCCN)NC(=O)CCCCCNC(=O)[C@H](CCCCN)NC(=O)[C@H](CCC(N)=O)NC(=O)[C@H](CCSC)NC(=O)[C@H](CC(C)C)NC(=O)[C@]1(C)CCCC=CCCC[C@](C)(NC(=O)[C@H](CC(C)C)NC(=O)[C@H](Cc2ccccc2)NC(=O)[C@@H](NC(=O)[C@H](CC(C)C)NC(=O)[C@H](CCCCN)NC(C)=O)[C@@H](C)O)C(=O)N[C@@H](Cc2ccc(O)cc2)C(=O)N[C@@H](Cc2c[nH]c3ccccc23)C(=O)N[C@@H](C)C(=O)N1)[C@@H](C)O)C(=O)N[C@@H](CCC(N)=O)C(=O)N[C@@H](CCCCN)C(N)=O,circular dichroism,phosphate buffer,"pH 7.2, room temperature",,helical content,96.7%
CSCC[C@H](NC(=O)CNC(=O)[C@H](CCCCN)NC(=O)[C@H](CC(C)C)NC(=O)[C@@H]1CCCN1C(=O)[C@H](CO)NC(=O)[C@H](Cc1c[nH]cn1)NC(=O)[C@H](Cc1c[nH]c2ccccc12)NC(=O)[C@H](CCCNC(=N)N)NC(=O)[C@H](CC(C)C)NC(=O)[C@H](CCCNC(=N)N)NC(=O)[C@H](Cc1c[nH]c2ccccc12)NC(=O)[C@H](CS)NC(=O)CCCCCNC(=O)CN1CCN(CC(=O)O)CCN(CC(=O)O)CCN(CC(=O)O)CC1)C(=O)O [copper-64 labelled],PET imaging,"BALB/c nude mice, kidney","intravenous, dose not given, 30 h, Huh-7 tumour-bearing",,tissue uptake,4.14 ± 0.78 %ID/g
O=C1NC2(CC2)COc2ncc(F)cc2[C@H]2COCCN2c2ccn3ncc1c3n2,,"Sprague-Dawley rat, male, serum","oral, 2.5 mg/kg/day, 4 weeks daily, end of recovery period",,alanine aminotransferase activity,34.8 ± 11.8 U/L
CSCC[C@H](N)C(=O)N[C@@H](C)C(=O)N[C@@H](CCCNC(=N)N)C(=O)N[C@@H](CCCNC(=N)N)C(=O)N[C@@H](CC(=O)O)C(=O)N[C@@H](CCCCN)C(=O)N[C@H](C(=O)N[C@@H](CC(=O)O)C(=O)N[C@@H](Cc1ccccc1)C(=O)N[C@@H](C)C(=O)N[C@@H](CCCNC(=N)N)C(=O)N[C@@H](CCCNC(=N)N)C(=O)N[C@@H](CCCNC(=N)N)C(=O)N[C@@H](CCCNC(=N)N)C(=O)NCCCCCC(=O)NCCCCC(NC(=O)CCCCCNC(=O)[C@H](CCCNC(=N)N)NC(=O)[C@H](CCCNC(=N)N)NC(=O)[C@H](CCCNC(=N)N)NC(=O)[C@H](CCCNC(=N)N)NC(=O)[C@H](C)NC(=O)[C@H](Cc1ccccc1)NC(=O)[C@H](CC(=O)O)NC(=O)[C@@H](NC(=O)[C@H](CCCCN)NC(=O)[C@H](CC(=O)O)NC(=O)[C@H](CCCNC(=N)N)NC(=O)[C@H](CCCNC(=N)N)NC(=O)[C@H](C)NC(=O)[C@@H](N)CCSC)[C@@H](C)O)C(=O)NCCCCC(NC(=O)C(CCCCNC(=O)CCCCCNC(=O)[C@H](CCCNC(=N)N)NC(=O)[C@H](CCCNC(=N)N)NC(=O)[C@H](CCCNC(=N)N)NC(=O)[C@H](CCCNC(=N)N)NC(=O)[C@H](C)NC(=O)[C@H](Cc1ccccc1)NC(=O)[C@H](CC(=O)O)NC(=O)[C@@H](NC(=O)[C@H](CCCCN)NC(=O)[C@H](CC(=O)O)NC(=O)[C@H](CCCNC(=N)N)NC(=O)[C@H](CCCNC(=N)N)NC(=O)[C@H](C)NC(=O)[C@@H](N)CCSC)[C@@H](C)O)NC(=O)CCCCCNC(=O)[C@H](CCCNC(=N)N)NC(=O)[C@H](CCCNC(=N)N)NC(=O)[C@H](CCCNC(=N)N)NC(=O)[C@H](CCCNC(=N)N)NC(=O)[C@H](C)NC(=O)[C@H](Cc1ccccc1)NC(=O)[C@H](CC(=O)O)NC(=O)[C@@H](NC(=O)[C@H](CCCCN)NC(=O)[C@H](CC(=O)O)NC(=O)[C@H](CCCNC(=N)N)NC(=O)[C@H](CCCNC(=N)N)NC(=O)[C@H](C)NC(=O)[C@@H](N)CCSC)[C@@H](C)O)C(N)=O)[C@@H](C)O (stereo partly drawn),,"C57BL/6 mouse female, liver","dose not given, 6 h",relative to: total,tissue distribution,6.48% and 2.96% and 7.04%
C[C@H](O)[C@@H](NC(=O)[C@H]1CCCN1C(=O)[C@@H](CCCCN)NC(=O)[C@@H](CO)NC(=O)[C@@H](Cc1ccc(O)cc1)NC(=O)[C@@H](CC(N)=O)NC(=O)CCOCCOCCOCCNC(=O)CN1CCN(CC(=O)O)CCN(CC(=O)O)CCN(CC(=O)O)CC1)C(=O)N[C@H](CC(=O)O)C(=O)N[C@H](CCCNC(=N)N)C(=O)N[C@H](CCC(N)=O)C(=O)N[C@H](Cc1ccc(O)cc1)C(=O)N[C@H](Cc1c[nH]cn1)C(=O)N[C@H](Cc1ccccc1)C(N)=O [copper-64 labelled],ex vivo gamma counting,"C57BL/6J mouse, male, normal, testis","intravenous, 1.85 MBq, 60 min",,tissue uptake,0.12 ± 0.01 %ID/g
CC(C)C[C@@H](NC(=O)[C@@H](CCCNC(=N)N)NC(=O)[C@@H](Cc1c[nH]cn1)NC(=O)[C@@H](Cc1c[nH]c2ccccc12)NC(=O)[C@@H](Cc1c[nH]cn1)NC(=O)[C@@H](Cc1ccccc1)NC(=O)[C@H](NC(=O)[C@@H](Cc1ccc(O)cc1)NC(=O)CNC(=O)CNC(=O)CCOCCOCCOCCNC(=O)CN1CCN(CC(=O)O)CCN(CC(=O)O)CC1)[C@H](C)O)C(=O)N[C@H](CC(N)=O)C(=O)N1CCC[C@@H]1C(=O)O [gallium-68 labelled],,male C57BL/6 mice,"intravenous, 1.85 MBq, 60 min",relative to: tumour over brain,tumour-to-tissue ratio,11.8 ± 2.37
CC(C)[C@@H]1NC(=O)CNC(=O)[C@H](CC(N)=O)NC(=O)[C@H](CCCNC(=N)N)NC(=O)[C@H](Cc2ccc(O)cc2)NC(=O)[C@H](C(C)C)NC(=O)[C@@H](NC(=O)[C@@H](NC(=O)[C@H](CC(N)=O)NC(=O)[C@H](Cc2c[nH]c3ccccc23)NC(=O)[C@H](C)NC(=O)[C@H](Cc2ccccc2)NC(=O)CNC(=O)[C@H](CCCCN)NC(=O)[C@H](Cc2ccccc2)NC(=O)[C@H](Cc2ccccc2)NC(=O)[C@H](CCCCN)NC(=O)OCC2c3ccccc3-c3ccccc32)C(C)C)CSSC[C@@H](C(=O)N[C@@H](Cc2c[nH]cn2)C(=O)N[C@@H](CCCNC(=N)N)C(=O)N[C@@H](CCCNC(=N)N)C(=O)N[C@@H](C)C(=O)N[C@@H](CC(N)=O)C(N)=O)NC(=O)[C@H](C(C)C)NC(=O)[C@H](CCCNC(=N)N)NC1=O,,"ICR mice, blood","intraperitoneal, 10 mg/kg, day 5",,basophils,1.69 ± 0.29%
CN(C)CCc1c[nH]c2cccc(/N=N/c3ccccc3)c12,light irradiation,solution,added: light 385 nm,,cis isomer at photostationary state,50%
COc1cc2c(cc1O)C(CCc1ccc(Cl)cc1)N([11CH3])CC2 (stereo not drawn),PET,"Sprague-Dawley rat, male, brain","intravenous, 1 mg/kg, carrier added",,time to peak brain radioactivity,1 min
N=C(N)NCCC[C@H](NC(=O)[C@H](CCCNC(=N)N)NC(=O)[C@H](CCCNC(=N)N)NC(=O)[C@H](CCC(N)=O)NC(=O)[C@H](CCCNC(=N)N)NC(=O)[C@H](CCCNC(=N)N)NC(=O)[C@H](CCCCN)NC(=O)[C@H](CCCCN)NC(=O)[C@H](CCCNC(=N)N)NC(=O)CNC(=O)[C@H](Cc1ccc(O)cc1)NC(=O)[C@H](Cc1ccccc1)NC(=O)[C@H](Cc1ccccc1)NC(=O)[C@H](Cc1ccccc1)NC(=O)OCC1c2ccccc2-c2ccccc21)C(=O)O,,C57BL/6 mice,"intraperitoneal, 5 mg/kg, 2 h",direction not given,health score,5
CC[C@H](C)[C@H](NC(=O)[C@H](CCCCN)NC(=O)CNC(=O)[C@H](CC(C)C)NC(=O)[C@H](Cc1ccccc1)NC(=O)[C@H](CCCCN)NC(=O)[C@H](CO)NC(=O)[C@H](Cc1ccccc1)NC(=O)[C@H](Cc1c[nH]c2ccccc12)NC(=O)[C@H](CCC(N)=O)NC(=O)[C@@H](NC(=O)[C@H](Cc1ccccc1)NC(=O)CCCCCNC(=O)CN1CCN(CC(=O)O)CCN(CC(=O)O)CCN(CC(=O)O)CC1)C(C)C)C(=O)N[C@@H](CCC(=O)O)C(=O)N1CCC[C@H]1C(=O)N[C@@H](CC(=O)O)C(=O)N[C@H](C(=O)N[C@@H](CO)C(=O)N[C@@H](CCC(N)=O)C(=O)N[C@H](C(=O)N[C@@H](CCC(N)=O)C(=O)N[C@@H](CC(=O)O)C(=O)N1CCC[C@H]1C(=O)N[C@@H](CC(N)=O)C(=O)N[C@@H](CC(=O)O)C(=O)N[C@@H](CCC(N)=O)C(=O)N[C@@H](Cc1ccc(O)cc1)C(=O)N[C@@H](CCC(=O)O)C(=O)N1CCC[C@H]1C(=O)N[C@@H](Cc1ccccc1)C(=O)O)C(C)C)C(C)C [copper-64 labelled],dynamic PET,"mouse both sexes, CT26 tumour, untreated, tumour","intravenous, 100 µCi/mouse, 990 s",,SUVmean,1.06 SUV
N#[11C]c1ccc(-c2csc(NN=C3CCCC3)n2)cc1,,"C57BL/6 mouse, male","intravenous, 3 MBq, 60 min",,uptake in stomach with contents,11.4 ± 2.72 %ID/g
CC[C@H](C)[C@H](NC(=O)[C@H](C)NC(=O)[C@H](CCCCN)NC(=O)[C@H](CCCCN)NC(=O)[C@@H](N)CCCNC(=N)N)C(=O)N[C@@H](CCCCN)C(=O)N[C@@H](CC(C)C)C(=O)N[C@H](C(=O)N[C@@H](CCCCN)C(=O)N[C@@H](CCCCN)C(=O)N[C@@H](CC(C)C)C(=O)N[C@H](C(=O)N[C@@H](CCCCN)C(=O)N[C@@H](CCCCN)C(=O)N[C@@H](CC(C)C)C(=O)N[C@@H](CCCCN)C(=O)N[C@@H](CCCCN)C(=O)N[C@@H](C)C(=O)N[C@@H](CC(C)C)C(=O)N[C@@H](CCCCN)C(=O)O)C(C)C)C(C)C,,human red blood cells,"0.25 mg/L, 1 h, mean of replicates",,hemolysis,0.106%
CN1Cc2cc(Cl)ccc2-n2c(nnc2C2CCN(c3cccc([18F])n3)CC2)C1,PET two-tissue compartment model,"rhesus monkey, cerebellum","intravenous, dose not given, 70 min scan, baseline scan",,total volume of distribution,0.85 ± 0.32 mL/cm3
CC(C)C[C@H](NC(=O)[C@H](Cc1ccc(O)cc1)NC(=O)[C@H](C)NC(=O)[C@@H](NC(=O)[C@H](CC(C)C)NC(=O)[C@H](C)NC(=O)[C@H](C)NC(=O)[C@H](CCCCN)NC(=O)CNC(=O)[C@@H](NC(=O)[C@H](Cc1c[nH]cn1)NC(=O)[C@H](CCCCN)NC(=O)CNC(=O)[C@@H](NC(=O)[C@H](Cc1c[nH]cn1)NC(=O)[C@@H](NC(=O)[C@H](C)NC(=O)[C@H](CCCCN)NC(=O)[C@H](CCCCN)NC(=O)[C@H](Cc1ccccc1)NC(=O)[C@H](Cc1c[nH]c2ccccc12)NC(=O)[C@H](CCCCN)NC(=O)CNC(=O)[C@H](Cc1c[nH]c2ccccc12)NC(=O)[C@@H](N)CCCNC(=N)N)[C@@H](C)O)C(C)C)C(C)C)[C@@H](C)O)C(N)=O,,"zebrafish embryos 28 hpf, E3 medium",24 h,,chronic toxic concentration,5 µM
COc1ccc(CNc2ccc3c(c2)S(=O)(=O)C=C3)cc1,,"male C57BL/6 mice, blood","intraperitoneal, 5 mg/kg, day 8, group average",,red cell distribution width SD,29.9 fL
CC(=O)CCC1C(=O)NC(C(C)C)C(=O)NC(Cc2cc(O)cc(F)c2)C(=O)N2CCCC(N2)C(=O)OC(C(C)=CC=CC(=O)N2CCCCO2)CC=CC=CC(O)C(C)C1O (stereo not drawn),,"rat Sprague-Dawley male, whole blood","oral, 5 mg/kg",relative to: whole blood over plasma,AUC(0-24h) ratio,37

# A few entries again:
SMILES,assay,system,conditions,how to read,measurement,result
CC(C)C[C@@H](NC(=O)[C@@H](CCCNC(=N)N)NC(=O)[C@@H](Cc1c[nH]cn1)NC(=O)[C@@H](Cc1c[nH]c2ccccc12)NC(=O)[C@@H](Cc1c[nH]cn1)NC(=O)[C@@H](Cc1ccccc1)NC(=O)[C@H](NC(=O)[C@@H](Cc1ccc(O)cc1)NC(=O)CNC(=O)CNC(=O)CCOCCOCCOCCNC(=O)CN1CCN(CC(=O)O)CCN(CC(=O)O)CC1)[C@H](C)O)C(=O)N[C@H](CC(N)=O)C(=O)N1CCC[C@@H]1C(=O)O [gallium-68 labelled],,male C57BL/6 mice,"intravenous, 1.85 MBq, 60 min",relative to: tumour over brain,tumour-to-tissue ratio,11.8 ± 2.37
C[C@H](O)[C@@H](NC(=O)[C@H]1CCCN1C(=O)[C@@H](CCCCN)NC(=O)[C@@H](CO)NC(=O)[C@@H](Cc1ccc(O)cc1)NC(=O)[C@@H](CC(N)=O)NC(=O)CCOCCOCCOCCNC(=O)CN1CCN(CC(=O)O)CCN(CC(=O)O)CCN(CC(=O)O)CC1)C(=O)N[C@H](CC(=O)O)C(=O)N[C@H](CCCNC(=N)N)C(=O)N[C@H](CCC(N)=O)C(=O)N[C@H](Cc1ccc(O)cc1)C(=O)N[C@H](Cc1c[nH]cn1)C(=O)N[C@H](Cc1ccccc1)C(N)=O [copper-64 labelled],ex vivo gamma counting,"C57BL/6J mouse, male, normal, testis","intravenous, 1.85 MBq, 60 min",,tissue uptake,0.12 ± 0.01 %ID/g
